Published values gathered from unrelated publications.
Parts stem from different laboratories: compare values within a part only. pKi: −log10 of the molar value.
Sequence of UniProt P08908 (whole entry, looked up): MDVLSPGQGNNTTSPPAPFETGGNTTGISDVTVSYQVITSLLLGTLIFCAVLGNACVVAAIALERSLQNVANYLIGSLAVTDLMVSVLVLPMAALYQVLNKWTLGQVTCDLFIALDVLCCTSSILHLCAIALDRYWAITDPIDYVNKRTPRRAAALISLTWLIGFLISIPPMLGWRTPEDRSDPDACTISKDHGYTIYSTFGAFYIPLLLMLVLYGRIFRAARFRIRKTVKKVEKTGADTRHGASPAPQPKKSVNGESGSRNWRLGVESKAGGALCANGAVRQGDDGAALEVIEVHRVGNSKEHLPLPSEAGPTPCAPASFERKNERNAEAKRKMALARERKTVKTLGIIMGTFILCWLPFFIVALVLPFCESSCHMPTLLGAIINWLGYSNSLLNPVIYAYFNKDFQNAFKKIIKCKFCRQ

Series 1 — cell line: HaCaT; concentration: 100 µM; time: 18 h
SMILES | viability [%]
COc1cc(C(=O)NS(=O)(=O)c2ccccc2C)ccc1Cc1cn(C)c2ccc(NC(=O)OC3CCCC3)cc12 | 55.7
COc1cc(C(=O)NC2CCCNC2)cc(OC)c1OC (stereo not drawn) | 108
Cc1ccc(S(=O)(=O)NC(=O)NN2CCCCCC2)cc1 | 53.2
CCc1nc(N)nc(N)c1-c1ccc(Cl)cc1 | 90.1
C[C@@H]1O[C@@H](OC[C@H]2O[C@@H](Oc3c(-c4ccc(OCCO)c(OCCO)c4)oc4cc(OCCO)cc(O)c4c3=O)[C@H](O)[C@@H](O)[C@@H]2O)[C@H](O)[C@H](O)[C@H]1O | 96.5
CN(C)C(=O)COC(=O)Cc1ccc(OC(=O)c2ccc(NC(=N)N)cc2)cc1 | 90.1
Cc1cc(NS(=O)(=O)c2ccc(N)cc2)nc(C)n1 | 108
N#C[C@@H]1C[C@@H]2C[C@@H]2N1C(=O)[C@@H](N)C12CC3CC(CC(O)(C3)C1)C2 | 117
Oc1c(I)cc(I)c2cccnc12 | 111
N[C@H](C(=O)O)[C@H](O)c1ccc(O)c(O)c1 | 126
Cc1ncc([N+](=O)[O-])n1C | 90.2

Series 2 — host: human patients; sample: plasma
SMILES: COc1ccc(-c2c(Nc3ccccn3)[nH]c3c(C4=CCCCC4)c(-c4ccccc4)nn3c2=O)cc1
measured | dose | time | mean concentration [ng/mL]
S-adenosylmethionine | 150 mg once daily | 6 h | 22
methionine | 150 mg once daily | 8 h | 124000
methionine | 100 mg once daily | 4 h | 95700
methionine | 150 mg once daily | 6 h | 124000
methionine | 400 mg once daily | 0 h | 82100
methionine | 200 mg once daily | 6 h | 120000
methionine | 200 mg once daily | 4 h | 128000
S-adenosylmethionine | 200 mg once daily | 0 h | 17
methionine | 400 mg once daily | 6 h | 84600
S-adenosylmethionine | 200 mg once daily | 2 h | 14.8
S-adenosylmethionine | 100 mg once daily | 0 h | 19.3
S-adenosylmethionine | 400 mg once daily | 0 h | 20.8

Series 3 — effect on: enzyme activity; action: inhibitor; concentration: 0.5 µM; reference: control
Target: Mitogen-activated protein kinase kinase kinase 8 (MAP3K8, Homo sapiens, UniProt P41279)
Sequence of UniProt P41279 (whole entry, looked up): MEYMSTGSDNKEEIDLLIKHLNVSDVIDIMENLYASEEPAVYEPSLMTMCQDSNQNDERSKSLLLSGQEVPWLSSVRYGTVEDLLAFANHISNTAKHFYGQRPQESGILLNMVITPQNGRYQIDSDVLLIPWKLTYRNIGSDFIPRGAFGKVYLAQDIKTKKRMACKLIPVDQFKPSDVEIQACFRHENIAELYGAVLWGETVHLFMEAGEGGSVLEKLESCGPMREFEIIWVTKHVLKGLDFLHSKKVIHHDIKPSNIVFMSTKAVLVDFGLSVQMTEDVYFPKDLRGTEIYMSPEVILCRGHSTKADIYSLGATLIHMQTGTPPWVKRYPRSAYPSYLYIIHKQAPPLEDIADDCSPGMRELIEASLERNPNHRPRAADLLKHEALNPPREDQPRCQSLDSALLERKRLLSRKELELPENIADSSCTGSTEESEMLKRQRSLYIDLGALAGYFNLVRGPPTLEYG
Compound | remaining activity [%]
CCOc1nc(NC(=O)Cc2cc(OC)ccc2OC)cc(N)c1C#N | 96.9
O=c1cc(-c2cccc3c2Sc2ccccc2S3)oc(N2CCOCC2)c1 | 103
Nc1cccc(-c2cc3c(Oc4cccc(O)c4)ncnc3[nH]2)c1 | 99.6
CN([C@@H](Cc1ccc(OS(=O)(=O)c2cccc3cnccc23)cc1)C(=O)N1CCN(c2ccccc2)CC1)S(=O)(=O)c1cccc2cnccc12 | 99.3
CCN(CC)CCNC(=O)c1c(C)[nH]c(/C=C2\C(=O)Nc3ccc(Cl)cc32)c1C | 113
COc1cc2ncnc(Nc3ccc(O)c(Br)c3)c2cc1OC | 97.6
N#Cc1c(NC(=O)c2cccc3ccccc23)sc2c1CCCC2 | 99.8
C[C@@H]1CCN(C(=O)CC#N)C[C@@H]1N(C)c1ncnc2[nH]ccc12 | 93.5
Cc1nc2cc3nc(-c4cccs4)cnc3cc2n1C | 99
Ic1cccc(CSc2nnc(-c3ccncc3)o2)c1 | 96.1
N#C/C(=C\c1ccc(O)c(O)c1)C(=O)NCc1ccccc1 | 98.1
Cc1cn(-c2cc(NC(=O)c3ccc(C)c(Nc4nccc(-c5cccnc5)n4)c3)cc(C(F)(F)F)c2)cn1 | 95.1
c1ccc(-c2cnc(Nc3ccc(OCCN4CCCC4)cc3)s2)cc1 | 97.2
COc1cc2c(cc1OC)-c1[nH]nc(Nc3cccc(F)c3)c1C2 | 99.9
Cc1cc2ncc(-c3ccccc3)nc2cc1C | 106
O=C(NC(NC(=S)Nc1ccc(F)c([N+](=O)[O-])c1)C(Cl)(Cl)Cl)C(c1ccccc1)c1ccccc1 (stereo not drawn) | 105
O=C1C(Cl)=C(N2C(=O)CCC2=O)C(=O)c2ccccc21 | 91.8
CN(C)C[C@H]1CCn2c(c(C3=C(c4cn(C)c5ccccc45)C(=O)NC3=O)c3ccccc32)C1 | 95
COc1cc2ncnc(Nc3cccc(Cl)c3)c2cc1OC | 104
CCN(CC)CCNC(=O)c1c(C)[nH]c(/C=C2\C(=O)Nc3ccc(F)cc32)c1C | 117
O=C(Nc1cccc(Nc2nccc(Nc3cccc(C(F)(F)F)c3)n2)c1)C1CC1 | 111
CCN(CC)C(=O)c1ccc(Nc2nc(OCC3CCCCC3)c3[nH]cnc3n2)cc1 | 101
Cn1nc2c3c(cccc31)C(=O)c1ccccc1-2 | 94.3
O=C1c2ccccc2-c2n[nH]c3cccc1c23 | 109

Further values, each from its own experiment
SMILES | target | method | quantity | result
CSc1cccnc1N1CCN(Cc2nc3ccccc3[nH]2)CC1 | 5-hydroxytryptamine receptor 1A (HTR1A, Homo sapiens, UniProt P08908) | radioligand binding | pKi | 5.77

Excerpt of the above (series 1):
SMILES | viability [%]
Cc1cc(NS(=O)(=O)c2ccc(N)cc2)nc(C)n1 | 108
COc1cc(C(=O)NC2CCCNC2)cc(OC)c1OC (stereo not drawn) | 108
Oc1c(I)cc(I)c2cccnc12 | 111
